# Assay results pooled from the literature.
# Each line is one published result; not all experiments were run side by side. Numbers after ± are the reported error.
# ALB: Albumin (ALB, Bos taurus, UniProt P02769)
# Sequence of UniProt P02769 (whole entry, looked up): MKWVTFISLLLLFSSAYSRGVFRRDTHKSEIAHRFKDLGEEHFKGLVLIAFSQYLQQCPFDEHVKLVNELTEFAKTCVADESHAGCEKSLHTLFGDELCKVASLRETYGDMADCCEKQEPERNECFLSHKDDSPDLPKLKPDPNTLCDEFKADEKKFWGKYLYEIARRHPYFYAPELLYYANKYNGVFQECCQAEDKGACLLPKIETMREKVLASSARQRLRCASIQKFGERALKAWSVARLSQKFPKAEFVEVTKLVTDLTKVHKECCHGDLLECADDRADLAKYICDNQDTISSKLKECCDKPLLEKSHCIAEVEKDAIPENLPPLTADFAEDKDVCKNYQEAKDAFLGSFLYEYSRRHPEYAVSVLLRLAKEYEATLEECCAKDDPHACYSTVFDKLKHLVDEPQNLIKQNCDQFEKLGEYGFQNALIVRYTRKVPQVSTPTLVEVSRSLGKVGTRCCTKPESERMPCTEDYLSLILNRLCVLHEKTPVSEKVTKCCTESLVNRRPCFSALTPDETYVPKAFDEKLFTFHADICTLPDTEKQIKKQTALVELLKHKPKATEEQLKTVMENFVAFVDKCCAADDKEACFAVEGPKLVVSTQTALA
# CYP1A1: Cytochrome P450 1A1 (CYP1A1, Homo sapiens, UniProt P04798)
# Sequence of UniProt P04798 (whole entry, looked up): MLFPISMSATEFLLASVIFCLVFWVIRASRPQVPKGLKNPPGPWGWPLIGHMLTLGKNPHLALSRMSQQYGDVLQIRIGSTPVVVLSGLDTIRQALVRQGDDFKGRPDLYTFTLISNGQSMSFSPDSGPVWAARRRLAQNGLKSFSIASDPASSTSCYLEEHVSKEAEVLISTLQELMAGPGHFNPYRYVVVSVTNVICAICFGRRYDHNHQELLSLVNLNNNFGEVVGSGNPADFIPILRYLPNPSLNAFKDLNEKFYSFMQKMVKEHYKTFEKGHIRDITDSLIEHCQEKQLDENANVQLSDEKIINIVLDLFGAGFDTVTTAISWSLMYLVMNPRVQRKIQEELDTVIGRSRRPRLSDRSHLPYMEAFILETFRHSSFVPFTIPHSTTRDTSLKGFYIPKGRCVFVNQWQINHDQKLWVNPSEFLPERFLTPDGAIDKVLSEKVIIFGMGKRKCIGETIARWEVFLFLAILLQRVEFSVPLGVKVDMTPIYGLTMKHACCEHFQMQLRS
# CYP11A1: Cholesterol side-chain cleavage enzyme, mitochondrial (CYP11A1, Homo sapiens, UniProt P05108)
# Sequence of UniProt P05108 (whole entry, looked up): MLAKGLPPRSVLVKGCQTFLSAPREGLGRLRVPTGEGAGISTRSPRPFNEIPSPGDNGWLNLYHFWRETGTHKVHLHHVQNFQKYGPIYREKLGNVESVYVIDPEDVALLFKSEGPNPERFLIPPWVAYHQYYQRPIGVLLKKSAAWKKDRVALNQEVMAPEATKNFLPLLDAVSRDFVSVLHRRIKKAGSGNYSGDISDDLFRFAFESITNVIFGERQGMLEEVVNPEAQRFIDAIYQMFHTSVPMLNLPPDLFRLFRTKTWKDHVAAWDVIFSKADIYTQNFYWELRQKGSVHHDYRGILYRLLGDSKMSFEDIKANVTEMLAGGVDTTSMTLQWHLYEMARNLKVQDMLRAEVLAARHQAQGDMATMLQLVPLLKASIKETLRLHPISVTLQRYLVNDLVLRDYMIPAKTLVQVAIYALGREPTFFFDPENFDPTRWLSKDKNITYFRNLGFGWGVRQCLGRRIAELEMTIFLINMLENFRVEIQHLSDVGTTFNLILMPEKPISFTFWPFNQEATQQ
# Sequence of UniProt P50225 (whole entry, looked up): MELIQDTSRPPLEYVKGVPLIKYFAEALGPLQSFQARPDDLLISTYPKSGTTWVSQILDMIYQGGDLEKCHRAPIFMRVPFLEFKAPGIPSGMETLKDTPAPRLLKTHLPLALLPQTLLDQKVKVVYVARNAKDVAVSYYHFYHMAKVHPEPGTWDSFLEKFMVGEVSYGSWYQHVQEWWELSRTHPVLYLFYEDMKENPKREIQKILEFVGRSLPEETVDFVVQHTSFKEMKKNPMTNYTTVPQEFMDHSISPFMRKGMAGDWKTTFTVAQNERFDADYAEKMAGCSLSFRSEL
# Sequence of UniProt P08684 (whole entry, looked up): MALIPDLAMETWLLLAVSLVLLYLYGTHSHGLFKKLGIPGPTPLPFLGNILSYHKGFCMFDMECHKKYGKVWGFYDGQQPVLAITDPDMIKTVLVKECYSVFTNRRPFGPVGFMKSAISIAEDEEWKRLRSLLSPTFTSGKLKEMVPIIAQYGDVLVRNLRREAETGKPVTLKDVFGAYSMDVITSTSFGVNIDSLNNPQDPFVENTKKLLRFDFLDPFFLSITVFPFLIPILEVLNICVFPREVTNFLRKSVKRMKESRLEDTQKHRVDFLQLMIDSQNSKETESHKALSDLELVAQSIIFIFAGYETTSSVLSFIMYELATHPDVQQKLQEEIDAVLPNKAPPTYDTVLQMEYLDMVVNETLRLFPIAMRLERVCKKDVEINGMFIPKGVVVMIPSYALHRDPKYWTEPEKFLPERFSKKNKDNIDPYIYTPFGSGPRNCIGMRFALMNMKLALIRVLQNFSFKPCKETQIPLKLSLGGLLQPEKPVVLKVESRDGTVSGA
# Sequence of UniProt P51589 (whole entry, looked up): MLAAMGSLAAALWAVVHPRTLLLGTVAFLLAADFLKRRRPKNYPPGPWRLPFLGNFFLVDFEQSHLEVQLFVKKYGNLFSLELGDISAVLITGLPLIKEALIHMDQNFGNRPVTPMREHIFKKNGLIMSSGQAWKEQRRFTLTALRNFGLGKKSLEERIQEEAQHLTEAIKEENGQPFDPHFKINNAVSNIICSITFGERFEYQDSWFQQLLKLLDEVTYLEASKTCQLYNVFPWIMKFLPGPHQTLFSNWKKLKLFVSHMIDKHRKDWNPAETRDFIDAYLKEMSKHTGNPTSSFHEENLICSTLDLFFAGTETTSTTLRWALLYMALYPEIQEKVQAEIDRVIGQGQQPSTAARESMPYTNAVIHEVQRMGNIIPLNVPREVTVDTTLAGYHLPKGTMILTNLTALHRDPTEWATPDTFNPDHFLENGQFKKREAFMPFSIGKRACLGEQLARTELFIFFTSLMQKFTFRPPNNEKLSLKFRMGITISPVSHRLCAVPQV
# Sequence of UniProt P16257 (whole entry, looked up): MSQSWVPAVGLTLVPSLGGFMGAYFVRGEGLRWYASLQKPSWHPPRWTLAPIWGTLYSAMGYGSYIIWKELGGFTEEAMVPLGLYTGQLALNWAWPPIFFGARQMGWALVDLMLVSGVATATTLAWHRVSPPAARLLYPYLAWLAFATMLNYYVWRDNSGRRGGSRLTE
# Sequence of UniProt P04799 (whole entry, looked up): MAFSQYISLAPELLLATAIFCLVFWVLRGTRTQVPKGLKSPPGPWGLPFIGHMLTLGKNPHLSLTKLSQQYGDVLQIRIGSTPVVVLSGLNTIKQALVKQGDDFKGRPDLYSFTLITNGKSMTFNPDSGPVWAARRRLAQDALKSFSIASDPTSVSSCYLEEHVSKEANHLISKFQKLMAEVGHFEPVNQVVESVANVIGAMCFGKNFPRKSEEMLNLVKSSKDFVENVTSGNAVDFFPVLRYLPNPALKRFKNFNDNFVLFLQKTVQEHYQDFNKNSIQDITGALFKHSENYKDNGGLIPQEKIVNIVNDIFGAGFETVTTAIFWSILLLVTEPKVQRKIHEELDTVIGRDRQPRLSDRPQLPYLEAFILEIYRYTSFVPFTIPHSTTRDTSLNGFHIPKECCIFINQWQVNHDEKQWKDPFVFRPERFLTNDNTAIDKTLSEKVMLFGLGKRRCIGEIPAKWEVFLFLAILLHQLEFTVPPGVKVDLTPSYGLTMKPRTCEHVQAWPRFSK
SMILES,target,assay,test system,setting,how to read,measurement,value
O=C(O[C@@H]1Cc2c(O)cc(O)cc2O[C@@H]1c1cc(O)c(O)c(O)c1)c1cc(O)c(O)c(O)c1,ALB,"binding, fluorescence quenching",,"25 µM, 1 h, pH 3.0, added: BSA 3 µM",baseline: untreated,remaining fluorescence,68.4%
C#Cc1ccc2oc(-c3ccccc3)cc(=O)c2c1,CYP1A1,EROD,,,baseline: Ki CYP1A2 over Ki CYP1A1,selectivity ratio,177
C=C1CCC(O)CC1=CC=C1CCCC2(C)C1CCC2C(C)(O)CCCCCC (centres unmarked),CYP11A1,substrate,,"50 µM, 2 h, 0.45% cyclodextrin, 1 µM enzyme",,substrate conversion,91%
[64Cu+2].c1cnc(CNCc2ccc(CN3CCCN4CCNCCCN(CC4)CC3)cc2)nc1,CXCR4,,"NOD/SCID mouse, U87 and U87-stb-CXCR4 xenografts, kidney","iv, 90 min, no blocking dose, ex vivo",,tissue uptake,22.9 ± 1.76 %ID/g
C=C1CCC(O)CC1=CC=C1CCCC2(C)C1CCC2C(C)(O)c1ccccc1 (centres unmarked),CYP11A1,substrate,,"50 µM, 2 h, 0.45% cyclodextrin, 1 µM enzyme",,number of products,4
Cn1ccn(N=Cc2ccccc2SSc2ccccc2C=Nn2ccn(C)c2=S)c1=S,ALB,optical absorption spectra,,added: BSA 40 µM,,adduct stability time,≥ 8 h
COc1c(C(=O)/C=C/c2ccc(F)cc2)c(O)c(OC)c2occc12,"CYP2 and CYP3 panel, human",,yeast microsomes,"15 min, pH 7.4, value for all nine CYPs",,IC50,> 20 µM
O=C(O)[C@@H]1C[C@@H](O)CN1C(=O)[C@@H]1CCCN1,iron(III) ion,"complex formation, from log β",aqueous 0.15 M NaCl,"40 °C, MAH−2 complex species",,−ΔG,5.82 kcal/mol
[64Cu+2].c1ccc(CNCc2ccc(CN3CCCN4CCNCCCN(CC4)CC3)cc2)nc1,CXCR4,,"NOD/SCID mouse, U87 and U87-stb-CXCR4 xenografts, bladder","iv, 30 min, ex vivo",,tissue uptake,2.55 ± 0.58 %ID/g
[2H]c1c(NS(C)(=O)=O)c([2H])c2c(C(=O)c3ccc(OCCCN(CCCC)CCCC)cc3)c(CCCC)oc2c1[2H],"Cytochrome P450 2J2 (CYP2J2, Homo sapiens, UniProt P51589)",metabolic stability,recombinant enzyme,"1 µM, enzyme 20 pmol/mL",,half-life,5.32 min
COc1ccc(S(=O)(=O)N(C)/N=C/c2ccc(C#N)cc2)cc1OC,"Cytochrome P450 1A2 (Cyp1a2, Rattus norvegicus, UniProt P04799)",substrate,Wistar rat liver microsomes,"10 µM, 240 min, 37 °C, added: furafylline 40 µM",,decrease of metabolism rate,~50%
C[C@@H]1COCCN1c1nc(-c2ccc(N)nc2)nc2c1C[C@@H]1COCCN21,CYP1A1,substrate,recombinant enzyme Supersomes,"1 µM, 60 min",,remaining compound,44%
COc1c(C(=O)/C=C/c2ccccc2)c(O)c(OC)c2occc12,CYP1A1,,yeast microsomes,10 µM,,inhibition,92%
COc1cc2oc(-c3ccc(OC(F)(F)F)cc3)cc(=O)c2c(O)c1O,Fe(III),spectrophotometric titration,methanol/water 80/20 w/w,"25.0 °C, ionic strength 0.1 M, pH 2.0",,log conditional stability constant,5.8
O=Cc1ccc(C2CCCCO2)o1 (centres unmarked),"human CYP1A2, 2B6, 2C8, 2C9, 2C19, 2D6, 3A4",,human liver microsomes,0.1 to 100 µM,,CYP inhibition,no inhibition
O=C(O)C(O)Cc1ccc(O)c(O)c1 (centres unmarked),"Sulfotransferase 1A1 (SULT1A1, Homo sapiens, UniProt P50225)","sulfation, substrate, cDNA-expressed enzyme",,"500 µM, 120 min",baseline: SULT1A3,relative activity,30%
CCc1cc(C)n2nc(-c3ccc(OCC[18F])cc3)c(CC(=O)N(CC)CC)c2n1,"Translocator protein (Tspo, Rattus norvegicus, UniProt P16257)",Logan plot analysis,"rat C6 glioma model, tumor","dose not given, 60 min dynamic PET",,total distribution volume,44.5 ± 8.27 mL/cm3
C=C1CCC(O)CC1=CC=C1CCCC2(C)C1CCC2C(C)(C)O (centres unmarked),CYP11A1,substrate,,"50 µM, 2 h, 0.45% cyclodextrin, 1 µM enzyme",,substrate conversion,0%
COc1ccc2cc(NC(=O)c3cc(-c4ccncc4)nc4ccccc34)ccc2c1,"Cytochrome P450 3A4 (CYP3A4, Homo sapiens, UniProt P08684)","substrate, refers to: metabolite M2",baculosomes,,,kcat/Km,17200 M⁻¹ s⁻¹
COc1cc2oc(-c3ccc(C(F)(F)F)cc3)cc(=O)c2c(O)c1O,Fe(III),spectrophotometric titration,methanol/water 80/20 w/w,"25.0 °C, ionic strength 0.1 M, pH 2.0",,log conditional stability constant,5.3
